Published values from different studies.
Lines come from different studies, so protocols differ. “And” joins repeats or separate records; there may be more than shown.
Cell line: human red blood cells

SMILES = CC[C@H](C)[C@H](NC(=O)[C@H](C)NC(=O)[C@H](CCCCN)NC(=O)[C@H](CO)NC(=O)[C@H](CCC(=O)O)NC(=O)[C@@H]1CCCN1C(C)=O)C(=O)N[C@@H](CCCCN)C(=O)N[C@@]1(C)CCCC=CCCC[C@@](C)(C(=O)N[C@H](C(=O)N[C@@H](CO)C(=O)N[C@@H](CCCCN)C(=O)N[C@@H](CCC(=O)O)C(=O)N[C@@H](CCCNC(=N)N)C(=O)N[C@@H](CO)C(=O)N[C@@H](CCCCN)C(=O)N[C@@H](CCCNC(=N)N)C(=O)N[C@@H](CO)C(=O)N2CCC[C@H]2C(N)=O)C(C)C)NC(=O)[C@H](CCCCN)NC(=O)[C@H](CC(C)C)NC(=O)[C@H](CC(C)C)NC1=O; setting = 200 µM, 1 h, 37 °C, 1% BSA; how to read = relative to: Triton X-100; measurement = hemolysis; value = < 5%
SMILES = CC[C@H](C)[C@H](NC(=O)[C@H](CS)NC(=O)[C@H](CCCNC(=N)N)NC(=O)[C@H](CCCNC(=N)N)NC(=O)[C@H](CC(N)=O)NC(=O)[C@H](CCCNC(=N)N)NC(=O)[C@H](CS)NC(=O)[C@@H](NC(=O)[C@@H](NC(=O)[C@@H](NC(=O)[C@H](CS)NC(=O)[C@H](CCCCN)NC(=O)[C@@H](N)CCCNC(=N)N)C(C)C)[C@@H](C)CC)C(C)C)C(=O)N[C@H](C(=O)N[C@@H](CC(C)C)C(=O)N[C@@H](CS)C(=O)N[C@@H](CCCNC(=N)N)C(=O)O)[C@@H](C)CC; setting = 128 µg/mL, 3 h, 37 °C; how to read = relative to: Triton X-100; measurement = hemolysis; value = 3.79%
SMILES = CC[C@H](C)[C@H](NC(=O)[C@H](CCCNC(=N)N)NC(=O)[C@H](CC(C)C)NC(=O)[C@@H](NC(=O)[C@H](CO)NC(=O)[C@H](CC(C)C)NC(=O)[C@@H](NC(=O)[C@H](CCCCN)NC(=O)[C@H](CO)NC(=O)[C@H](CC(C)C)NC(=O)[C@@H](N)Cc1ccccc1)[C@@H](C)CC)[C@@H](C)O)C(=O)N[C@@H](CC(C)C)C(=O)N[C@@H](CC(C)C)C(N)=O; assay = hemolysis; setting = 1 h, 37 °C; measurement = HC50; value = 50 µM
SMILES = CCCCCCCCCCCCCNCC(=O)N(CC(=O)N(CCCCN)CC(=O)N(CCN)CC(=O)N(CC(N)=O)C1CCCCC1)C1CCCCC1; assay = hemolysis; setting = 1 h; measurement = HC10; value = 75 µg/mL
SMILES = CC[C@H](C)[C@H](NC(=O)[C@H](CCCCN)NC(=O)[C@@H](NC(=O)[C@H](CC(N)=O)NC(=O)[C@H](CCCNC(=N)N)NC(=O)[C@H](CCCNC(=N)N)NC(=O)[C@H](CC(N)=O)NC(=O)[C@H](CCCNC(=N)N)NC(=O)[C@H](CCCNC(=N)N)NC(=O)[C@@H](NC(=O)[C@H](CO)NC(=O)[C@@H](NC(=O)[C@H](CS)NC(=O)[C@H](CCCCN)NC(=O)[C@@H](N)CCCNC(=N)N)[C@@H](C)CC)C(C)C)[C@@H](C)CC)C(=O)N[C@@H](CS)C(=O)N[C@@H](CC(N)=O)C(=O)O; setting = 128 µg/mL, 3 h, 37 °C; how to read = relative to: Triton X-100; measurement = hemolysis; value = 0.64%
SMILES = C[C@H](NC(=O)[C@H](CCCCN)NC(=O)[C@H](Cc1ccc(O)cc1)NC(=O)[C@H](CCCCN)NC(=O)[C@H](CCCCN)NC(=O)[C@H](CCCCN)NC(=O)[C@H](Cc1ccc(O)cc1)NC(=O)[C@H](CCCNC(=N)N)NC(=O)[C@H](CCCCN)NC(=O)[C@@H](N)CCCCN)C(=O)N[C@@H](Cc1ccc(O)cc1)C(=O)N[C@@H](CCCCN)C(=O)N1CCC[C@H]1C(=O)N[C@@H](Cc1ccc(O)cc1)C(=O)N[C@@H](CCCCN)C(=O)N[C@@H](CCCCN)C(=O)N[C@@H](CCCCN)C(=O)N[C@@H](CCCCN)C(=O)N[C@@H](CCCCN)C(=O)N[C@@H](Cc1ccccc1)C(N)=O; setting = 24 h, pH 7.4, 37 °C, 0.25% v/v erythrocytes; measurement = HC50; value = > 100 µM
SMILES = CC[C@H](C)[C@H](NC(=O)[C@H](CCCNC(=N)N)NC(=O)[C@H](C)NC(=O)[C@@H](NC(=O)[C@H](CO)NC(=O)[C@@H](NC(=O)[C@@H](NC(=O)[C@H](CCC(N)=O)NC(=O)[C@H](CO)NC(=O)[C@@H](NC(=O)[C@@H](N)Cc1ccccc1)[C@@H](C)CC)[C@@H](C)CC)[C@@H](C)CC)[C@@H](C)O)C(N)=O; assay = hemolysis; setting = 1 h, 37 °C; measurement = HC50; value = > 200 µM
SMILES = CC[C@H](C)[C@H](NC(=O)[C@H](C)NC(=O)[C@H](CCCNC(=N)N)NC(=O)[C@H](CCCNC(=N)N)NC(=O)[C@H](CC(N)=O)NC(=O)[C@H](CCCNC(=N)N)NC(=O)[C@H](CCCNC(=N)N)NC(=O)[C@H](C)NC(=O)[C@@H](NC(=O)[C@H](CC(C)C)NC(=O)[C@@H](NC(=O)[C@@H](NC(=O)[C@H](CS)NC(=O)[C@H](CCCCN)NC(=O)[C@@H](N)CCCNC(=N)N)C(C)C)[C@@H](C)CC)C(C)C)C(=O)N[C@H](C(=O)N[C@H](C(=O)N[C@@H](CC(C)C)C(=O)N[C@@H](CS)C(=O)N[C@@H](CCCNC(=N)N)C(=O)O)[C@@H](C)CC)C(C)C; setting = 128 µg/mL, 3 h, 37 °C; how to read = relative to: Triton X-100; measurement = hemolysis; value = 3.46%
SMILES = CC[C@H](C)[C@H](NC(=O)[C@H](CCCCN)NC(=O)[C@H](CC(C)C)NC(=O)[C@H](CC(C)C)NC(=O)[C@H](C)NC(=O)CNC(=O)[C@H](CC(C)C)NC(=O)[C@@H](N)Cc1ccccc1)C(=O)NCC(=O)N[C@@H](C)C(=O)N[C@@H](CCCCN)C(=O)N[C@@H](CC(C)C)C(=O)N[C@@H](CC(C)C)C(=O)N1CCC[C@H]1C(=O)N[C@@H](CO)C(=O)N[C@H](C(=O)N[C@H](C(=O)NCC(=O)N[C@@H](CC(C)C)C(=O)N[C@@H](Cc1ccccc1)C(=O)N[C@@H](CCCCN)C(=O)N[C@@H](CCCCN)C(=O)N[C@@H](CCCCN)C(=O)N[C@@H](CCC(N)=O)C(=O)N[C@@H](CCC(N)=O)C(=O)O)C(C)C)C(C)C; setting = 1 h; measurement = HC50; value = 39.9 to 61.5 µM and 28 to 60 µM
SMILES = CC[C@H](C)[C@H](NC(=O)[C@H](CCCNC(=N)N)NC(=O)[C@H](C)NC(=O)[C@@H](NC(=O)[C@H](CO)NC(=O)[C@@H](NC(=O)[C@@H](NC(=O)[C@H](CCC(N)=O)NC(=O)[C@H](CO)NC(=O)[C@@H](NC(=O)[C@@H](N)Cc1ccccc1)[C@@H](C)CC)[C@@H](C)CC)[C@@H](C)CC)[C@@H](C)O)C(=O)N[C@@H](CC(C)C)C(=O)N[C@@H](CC(C)C)C(N)=O; assay = hemolysis; setting = 1 h, 37 °C; measurement = HC50; value = > 200 µM

For quick reference, copied from above:
SMILES = C[C@H](NC(=O)[C@H](CCCCN)NC(=O)[C@H](Cc1ccc(O)cc1)NC(=O)[C@H](CCCCN)NC(=O)[C@H](CCCCN)NC(=O)[C@H](CCCCN)NC(=O)[C@H](Cc1ccc(O)cc1)NC(=O)[C@H](CCCNC(=N)N)NC(=O)[C@H](CCCCN)NC(=O)[C@@H](N)CCCCN)C(=O)N[C@@H](Cc1ccc(O)cc1)C(=O)N[C@@H](CCCCN)C(=O)N1CCC[C@H]1C(=O)N[C@@H](Cc1ccc(O)cc1)C(=O)N[C@@H](CCCCN)C(=O)N[C@@H](CCCCN)C(=O)N[C@@H](CCCCN)C(=O)N[C@@H](CCCCN)C(=O)N[C@@H](CCCCN)C(=O)N[C@@H](Cc1ccccc1)C(N)=O; setting = 24 h, pH 7.4, 37 °C, 0.25% v/v erythrocytes; measurement = HC50; value = > 100 µM
